Measured values gathered from unrelated publications.
“And” joins repeats or separate records; there may be more than shown. ± marks the error that the study gave.

| Compound | test | system | setting | scale | endpoint | result |
| --- | --- | --- | --- | --- | --- | --- |
| C[C@@H](NC(=O)N1C(=O)[C@H](Cc2ccnc(N)c2)[C@H]1C(=O)O)C1CCCCC1 | – | healthy Chinese adults | continuous intravenous infusion, 0.6 mg/kg/h, 5.0 days | – | urine leukocyte-positive | 0% |
| O=S(=O)(Nc1ccccc1)c1ccc(NC(=S)Nc2ccccc2)cc1 | item: CK | male mouse, blood | oral, 80 mg/kg daily, 14 days | – | serum enzyme activity | 3750 U/L |
| Clc1ccc(-c2ccccc2)cc1 | – | rat Sprague-Dawley female, serum | inhalation, 35 µg/rat, 24 h | – | serum Chloride | 77 ± 3 mmol/L |
| CCc1ccc(CC/C=C/c2ccc3c(c2)C(=O)CC3)cc1 | – | Sprague-Dawley rat, female | oral, 120 mg/kg/day, 14 days | – | Neutrophil percentage | 13.9% |
| Nc1ncnc2c1ncn2[C@@H]1O[C@@H]2COP(=O)([S-])O[C@@H]3[C@H](O)[C@@H](COP([O-])(=S)O[C@H]2[C@H]1O)O[C@H]3n1cnc2c(N)ncnc21.[Na+].[Na+] (stereo partly shown) | – | non-tumor-bearing mice, blood | intravenous, 1 mg/kg, toxicity study | – | lymphocyte percentage | 73 ± 1.96% |
| CC(C)[C@@H]1NC(=O)CNC(=O)[C@H](CC(N)=O)NC(=O)[C@H](CCCNC(=N)N)NC(=O)[C@H](Cc2ccc(O)cc2)NC(=O)[C@H](C(C)C)NC(=O)[C@@H](NC(=O)[C@@H](NC(=O)[C@H](CC(N)=O)NC(=O)[C@H](Cc2c[nH]c3ccccc23)NC(=O)[C@H](C)NC(=O)[C@H](Cc2ccccc2)NC(=O)CN)C(C)C)CSSC[C@@H](C(=O)N[C@@H](Cc2cnc[nH]2)C(=O)N[C@@H](CCCNC(=N)N)C(=O)N[C@@H](CCCNC(=N)N)C(=O)N[C@@H](C)C(=O)N[C@@H](CC(N)=O)C(N)=O)NC(=O)[C@H](C(C)C)NC(=O)[C@H](CCCNC(=N)N)NC1=O | – | ICR mouse | ip, 10 mg/kg | direction not given | group interaction score | 0 |
| O=C(O)CCCOc1ccc(F)cc1-c1cc(-c2ccccc2C(F)(F)F)n(-c2ccccc2)n1 | – | female Crl:CD(SD) rats | intravenous, 25 µg/kg, 14 d | – | RET | 3.39% and 3.38% and 3.74% and 3.66% and 3.99% |
| O=C1Nc2cc3[nH]nc(-c4ccncc4)c3cc2CN1Cc1ccccc1 | CTCAE v4.03 | advanced solid tumour patients | intravenous, 7.2 mg/kg | – | patients with ≥1 TEAE | 100% |
| CO[C@H]1C[C@@H]2CC[C@@H](C)[C@@](O)(O2)C(=O)C(=O)N2CCCC[C@H]2C(=O)O[C@H]([C@H](C)C[C@@H]2CC[C@@H](OC(=O)NCCOCCOCCOCCOCCOCCOCCOCCOCCC(=O)N3CCc4cc(Cn5nc(-c6ccc7oc(N)nc7c6)c6c(N)ncnc65)ccc4C3)[C@H](OC)C2)C[C@@H](O)[C@H](C)/C=C(\C)[C@@H](O)[C@@H](OC)C(=O)[C@H](C)C[C@H](C)/C=C/C=C/C=C/1C | phase 1 dose escalation | advanced solid tumour patients | intravenous, 8 mg weekly, any grade | – | any TEAE incidence | 100% |
| CN1CC[C@@H](c2c(O)cc(O)c3c(=O)cc(-c4ccc(C(F)(F)F)cc4Cl)oc23)[C@@H]1CO | item: Anemia | relapsed AML | oral, 150 mg, grade 3-4, intermittent dosing | – | patients with adverse event | 50% |
| COc1cc2c(Oc3ccc4[nH]c(C)cc4c3F)ccnc2cc1OCC1(N)CC1 | – | paediatric refractory sarcoma patients | 12 mg | – | grade 1-2 QTc prolongation | 9.1% |
| C=CCNc1c(O)cc2c(O)c1C[C@@H](C)C[C@H](OC)[C@H](O)[C@@H](C)/C=C(\C)[C@H](OC(N)=O)[C@@H](OC)/C=C\C=C(/C)C(=O)N2 | – | unresectable or metastatic STS, GIST, other | intravenous, 225 mg/m^2 | – | patients with infusion site pain | 33% |
| CC(=O)c1c(C)c2cnc(Nc3ccc(C4CCN(CCS(C)(=O)=O)CC4)cn3)nc2n(C2CCCC2)c1=O | – | human, plasma | oral, 25 mg, day 1 single dose | – | Vd | 2080 L |
| COc1ccc(-c2c(-c3ccc(C#N)c(F)c3)nc(N3CCC(N)CC3)n(C)c2=O)cc1F | item: Dysgeusia | relapsed/refractory marginal zone lymphoma patients | oral, 60 mg, grade 3 to 4, dose expansion | – | treatment-related adverse event incidence | 0% |
| NCCCS(=O)(=O)O | – | human | oral, 265 mg twice daily, 8 h post-dose, week 65 | – | plasma concentration | 281 ng/mL |
| C=CC(=O)N1CC[C@H](n2nc(C#Cc3cc(OC)cc(OC)c3)c3c(N)ncnc32)C1 | – | human patients | oral, dose not given, QD regimen, adverse drug reaction, with: lanthanum carbonate hydrate | – | decreased appetite, grade ≥3 | 4.2% |

| Compound | test | system | setting | scale | endpoint | result |
| --- | --- | --- | --- | --- | --- | --- |
| C1=Cc2nc1cc1ccc([n-]1)c(-c1ccccc1)c1nc(cc3ccc([n-]3)c2-c2ccccc2)C=C1.CC(=O)[O-].[Mn+3] | LC-MS/MS | Sprague-Dawley rat, plasma | oral gavage, dose not given, 120 min | – | mean plasma concentration | 48 ng/mL |
| CN1CCN(S(=O)(=O)c2cc([N+](=O)[O-])ccc2N(CCOS(C)(=O)=O)CCOS(C)(=O)=O)CC1 | – | NOD/SCID mouse, naive, blood | intraperitoneal, 25 mg/kg, week 2 | – | hemoglobin | 118 g/L and 106 g/L and 156 g/L |
| CC1(C)C(C=C(Cl)Cl)C1C(=O)OC(C#N)c1ccc(F)c(Oc2ccccc2)c1 (stereo not shown) | item: CYP2C19 | human, age 1 year, recombinant human CYP2C19 | 0.1 µM | – | enzyme contribution to clearance | 0.52% |
| C[C@]1(CO)Cc2ncn(-c3ccc(C#N)c(Cl)c3)c2C(=O)O1 | – | human | 20 mg multiple doses, fasted | – | subjects with drug-related fatigue | 0% |
| N[C@@H]1c2ccccc2OC12CCN(c1cnc3c(N4CCCc5ncccc54)n[nH]c3n1)CC2 | – | advanced metastatic solid tumour patients | oral, 20 mg once daily | – | TEAE leading to interruption | 33.3% |
| COc1ncccc1-c1cnn2ccc(N3CCN(C(=O)OC(C)C)CC3)nc12 | – | mouse, formalin test, brain | oral, 60 mg/kg, 60 min | – | drug concentration | 115 µM |
| NCCCC[C@@H]1NC(=O)[C@@H](Cc2c[nH]c3ccccc23)NC(=O)[C@H](c2ccccc2)NC(=O)[C@@H]2C[C@@H](OC(=O)NCCN)CN2C(=O)[C@H](Cc2ccccc2)NC(=O)[C@H](Cc2ccc(OCc3ccccc3)cc2)NC1=O | – | healthy human volunteers | 1950 µg twice daily | – | subjects with feeling hot | 6% |
| O=C(Nc1ccccc1)C1CCN(C(=O)Oc2cccnc2)CC1 | adverse event reporting | healthy women | oral, 20 mg, 7 days | – | subjects with ear discomfort | 0% |
| CCCC[C@@H]1NC(=O)[C@H](Cc2ccc(O)cc2)NC(=O)[C@@H]2CCCN2C(=O)[C@H](CC(=O)O)NC(=O)[C@H](C)NC(=O)[C@H](Cc2ccccc2)NC(=O)[C@@H]2CSCCC(=O)N3CN(CN(C3)C(=O)CCSC[C@@H](C(=O)N[C@@H](C)C(N)=O)NC1=O)C(=O)CCSC[C@H](NC(=O)[C@H](C)NC(C)=O)C(=O)N[C@@H]([C@@H](C)CC)C(=O)N[C@@H](CCC(=O)O)C(=O)N[C@@H](CCC(=O)O)C(=O)N[C@H](CCCCNC(=O)CCc1cn(CCOCCOCCOCCN(CCOCCOCCOCCC(=O)N[C@H]3CSCCC(=O)N4CN5CN(C4)C(=O)CCSC[C@H](NC(=O)[C@@H](CC(=O)O)NC(=O)[C@H](Cc4cccc6ccccc46)NC(=O)[C@@H]4CCCN4C3=O)C(=O)N[C@@H](CCSC)C(=O)N[C@@H](CCCCNC(=N)N)C(=O)N[C@@H](CC(=O)O)C(=O)N[C@@H](Cc3c[nH]c4ccccc34)C(=O)N[C@@H](CO)C(=O)N[C@@H]([C@@H](C)O)C(=O)N3CCC[C@H]3C(=O)N3C[C@H](O)C[C@H]3C(=O)N[C@@H](Cc3c[nH]c4ccccc34)C(=O)N[C@H](C(N)=O)CSCCC5=O)CCOCCOCCOCCn3cc(CCC(=O)NCCCC[C@H]4NC(=O)[C@H](CCC(=O)O)NC(=O)[C@H](CCC(=O)O)NC(=O)[C@H]([C@@H](C)CC)NC(=O)[C@@H](NC(=O)[C@H](C)NC(C)=O)CSCCC(=O)N5CN6CN(C5)C(=O)CCSC[C@H](NC(=O)[C@H](Cc5ccc(O)cc5)NC(=O)[C@H](CCC(N)=O)NC4=O)C(=O)N[C@@H](Cc4ccccc4)C(=O)N[C@@H](C)C(=O)N[C@@H](CC(=O)O)C(=O)N4CCC[C@H]4C(=O)N[C@@H](Cc4ccc(O)cc4)C(=O)N[C@@H](CCCC)C(=O)N[C@H](C(=O)N[C@@H](C)C(N)=O)CSCCC6=O)nn3)nn1)C(=O)N[C@@H](CCC(N)=O)C(=O)N[C@@H](Cc1ccc(O)cc1)C(=O)N2 | – | Sprague-Dawley rat | – | – | unbound Vdss | 3 L/kg |
| NC(=O)[C@H]1CCN(c2ncnc(N)c2F)C[C@@H]1N1CCC[C@@H](Nc2cc(Cl)cc(C(F)(F)F)c2)C1=O | – | B-cell malignancy patients | oral, 20.5 mg twice daily, dose | – | grade ≥3 leukocytosis | 0% |
| CC[C@H](C)[C@H](N)C(=O)N[C@@H](CCCNC(=N)N)C(=O)N[C@H](C(=O)N[C@@H](Cc1c[nH]c2ccccc12)C(=O)N[C@@H](Cc1c[nH]c2ccccc12)C(=O)N[C@@H](CCCCN)C(=O)N[C@H](C(=O)N[C@H](C(=O)N[C@@H](CCCNC(=N)N)C(=O)N[C@@H](CCCCN)C(=O)N[C@@H](Cc1c[nH]c2ccccc12)C(=O)N[C@@H](CCCCN)C(=O)N[C@@H](C)C(=O)N[C@H](C(=O)N[C@@H](Cc1c[nH]c2ccccc12)C(=O)N[C@@H](Cc1c[nH]cn1)C(N)=O)[C@@H](C)CC)C(C)C)[C@@H](C)CC)C(C)C | reversed-phase UPLC | C18 column, TFA | – | – | elution acetonitrile content | 48.9% |
| CC[C@H](C)[C@H](NC(=O)[C@H](Cc1ccccc1)NC(=O)[C@H](CCC(=O)O)NC(=O)[C@H](CCCNC(=N)N)NC(=O)[C@H](C)NC(=O)[C@H](C)NC(=O)[C@H](CCC(N)=O)NC(=O)[C@H](CCC(=O)O)NC(=O)[C@H](CCC(=O)O)NC(=O)[C@H](CC(C)C)NC(=O)[C@H](Cc1ccc(O)cc1)NC(=O)[C@H](CO)NC(=O)[C@H](CO)NC(=O)[C@@H](NC(=O)[C@H](CC(=O)O)NC(=O)[C@H](CO)NC(=O)[C@@H](NC(=O)[C@H](Cc1ccccc1)NC(=O)[C@@H](NC(=O)CNC(=O)[C@H](CCC(=O)O)NC(=O)[C@H](C)NC(=O)CCc1cnc[nH]1)[C@@H](C)O)[C@@H](C)O)C(C)C)C(=O)N[C@@H](C)C(=O)N[C@@H](Cc1c[nH]c2ccccc12)C(=O)N[C@@H](CC(C)C)C(=O)N[C@H](C(=O)N[C@@H](CCCNC(=N)N)C(=O)NCC(=O)N[C@@H](CCCNC(=N)N)C(=O)N[C@@H](CCCCNC(=O)COCCOCCNC(=O)COCCOCCNC(=O)CC[C@H](NC(=O)CCCCCCCCCCCCCCCCC(=O)O)C(=O)O)C(=O)NCC(=O)NCC(=O)N[C@@H](CO)C(=O)N[C@@H](CCCCNC(=O)[C@H](CCCCNC(=O)[C@H](CCCCNc1c(NCCCCCN(O)C(=O)CCC(=O)NCCCCCN(O)C(=O)CCC(=O)NCCCCCN(O)C(C)=O)c(=O)c1=O)Nc1c(NCCCCCN(O)C(=O)CCC(=O)NCCCCCN(O)C(=O)CCC(=O)NCCCCCN(O)C(C)=O)c(=O)c1=O)NC(=O)[C@H](CCCCNc1c(NCCCCCN(O)C(=O)CCC(=O)NCCCCCN(O)C(=O)CCC(=O)NCCCCCN(O)C(C)=O)c(=O)c1=O)Nc1c(NCCCCCN(O)C(=O)CCC(=O)NCCCCCN(O)C(=O)CCC(=O)NCCCCCN(O)C(C)=O)c(=O)c1=O)C(=O)O)C(C)C [zirconium-89 labelled] | ex vivo gamma counting | Sprague-Dawley rat, male, liver | intravenous, 1 nmol, 24 h | – | tissue uptake | 3.1 %ID/g and 3.83 %ID/g and 3.27 %ID/g and 3.6 %ID/g and 3.51 %ID/g |
| O=C(Nc1cnccc1Cl)N1CCN(Cc2ccc3c(c2)OC(F)(F)O3)CC1 | – | culture medium without cells | 100 nM, 0 h | – | concentration | 0.0839 ± 0.0014 µM |
| COc1ccc(CCC2CCCC(CCc3ccc(OC)cc3)N2C[C@@H](O)CO)cc1.Cl (stereo in doubt) | – | rabbit Purkinje fibres | 0.1 µM, cycle length 1 s | reference: baseline | resting membrane potential change | 0.5 ± 0.6 mV |
| [O-][S+]1CCc2nc(N3CCC(c4ncc(Cl)cn4)CC3)nc(NC3(CO)CCC3)c21 (stereo not shown) | item: Constipation | healthy male humans | 48 mg single dose | – | adverse event incidence | 0% |

Some of these lines once more:
| Compound | test | system | setting | scale | endpoint | result |
| --- | --- | --- | --- | --- | --- | --- |
| C=CC(=O)N1CC[C@H](n2nc(C#Cc3cc(OC)cc(OC)c3)c3c(N)ncnc32)C1 | – | human patients | oral, dose not given, QD regimen, adverse drug reaction, with: lanthanum carbonate hydrate | – | decreased appetite, grade ≥3 | 4.2% |
| C1=Cc2nc1cc1ccc([n-]1)c(-c1ccccc1)c1nc(cc3ccc([n-]3)c2-c2ccccc2)C=C1.CC(=O)[O-].[Mn+3] | LC-MS/MS | Sprague-Dawley rat, plasma | oral gavage, dose not given, 120 min | – | mean plasma concentration | 48 ng/mL |
| CN1CCN(S(=O)(=O)c2cc([N+](=O)[O-])ccc2N(CCOS(C)(=O)=O)CCOS(C)(=O)=O)CC1 | – | NOD/SCID mouse, naive, blood | intraperitoneal, 25 mg/kg, week 2 | – | hemoglobin | 118 g/L and 106 g/L and 156 g/L |
| CC1(C)C(C=C(Cl)Cl)C1C(=O)OC(C#N)c1ccc(F)c(Oc2ccccc2)c1 (stereo not shown) | item: CYP2C19 | human, age 1 year, recombinant human CYP2C19 | 0.1 µM | – | enzyme contribution to clearance | 0.52% |
